Measured values of several laboratories.
Values joined by “and” are separate records of one study, mostly repeats; a detail may differ. ± gives the spread as reported.

Compound	cell line	test	conditions	scale	quantity	result
COc1ccc(-n2nc(C(C)=O)s/c2=N\N=C(/C)c2ccc(NC(=O)c3ccc(Cl)cc3)cc2)cc1	MCF7	–	5 µM	–	viability	3.71%
COC(=O)[C@]12CCC(C)(C)C[C@H]1[C@H]1C(=O)C=C3[C@@]4(C)C=C(C#N)C(=O)C(C)(C)[C@@H]4CC[C@@]3(C)[C@]1(C)CC2	HepG2	high content imaging, item: nuclear size	24 h, distribution mode 2	–	point of departure	3.31 µM
COc1cnc2cccc(N3CCc4c(cc(Cn5ccnc5C)cc4-c4cn(C)nc4C(F)(F)F)C3=O)c2c1	KMS-26	cell growth, inhibitor	120 h	–	EC50	12 nM
CC(=O)c1c(C)c2cnc(Nc3ccc(N4CCNCC4)cn3)nc2n(C2CCCC2)c1=O	HD-MB03	cell growth	168 h, DMSO	–	IC50	714 nM
O=C1c2ccncc2C(=O)c2c1[nH]c1ccccc21	pulmonary arterial smooth muscle cells, PAH patient	increased	concentration not given	–	phospho-Drp1 (Ser637) level	increased
C=CCn1c(=O)c2cnc(Nc3ccc(N4CCN(C)CC4)cc3)nc2n1-c1ccc2c(n1)[C@@](O)(CC)CC2	NCI-H1048	flow cytometry	concentration not given	–	G1 phase mitotic cells	0.08%
c1ccc2[nH]ccc2c1	HCT-8	RNA-seq, item: LDLR	concentration not given	–	mRNA level, LS mean	56.4 counts per million
CN(C)C(=O)c1cc2cnc(Nc3ccc(N4CCNCC4)cn3)nc2n1C1CCCC1	HD-MB03	cell growth	168 h, single agent	–	IC50	> 10000 nM
CC(C)(c1ccc(O)cc1)c1ccc(O)cc1	HepG2 spheroids	Hoechst flow cytometry	0.01 µM, 96 h	–	G2 phase cells	7.64 ± 1.54%
Cc1nn(-c2nc3ccc(Cl)c(Cl)c3[nH]2)c(O)c1C1OC(=O)c2ccccc21 (stereo not drawn)	RAW-ISG	IFN luciferase reporter	10 µM, together with: HT-DNA	–	inhibition	85.9% and 85.6% and 86% and 85.7% and 86.3%
O=C(NOC[C@H](O)CO)c1ccc(F)c(F)c1Nc1ccc(I)cc1F	A-375	–	0.07813 µM, 72 h	–	viability	20.1%
O=C(/C=C/C=C/C=C/C1CCCCC1)NC1=C[C@@](O)(/C=C/C=C/C=C/C(=O)NC2=C(O)CCC2=O)[C@@H]2O[C@@H]2C1=O	786-O	CellTiter-Glo	78 h	–	GI50	12000 nM
O=C1c2cccc3c2[C@H](CCC3)CN1[C@@H]1CN2CCC1CC2	primary rat hippocampal/cortical neuron-glia cultures	–	1 µM, together with: 1 µM α-synuclein oligomers	–	reversal of trafficking deficit	-15.9%
CCn1cc(-c2cc(Cn3ccoc3=N)cc3c2CCN([C@@H](C)c2cc(OC)ccn2)C3=O)c(C(F)(F)F)n1	SW 1116	cell growth, inhibitor	120 h	–	EC50	> 30000 nM
CO[C@H]1C(=O)[C@]2(C)[C@@H](OC)C[C@H]3OC[C@@]3(OC(C)=O)[C@H]2[C@H](OC(=O)c2ccccc2)[C@]2(O)C[C@H](OC(=O)[C@H](O)[C@@H](NC(=O)OC(C)(C)C)c3ccccc3)C(C)=C1C2(C)C	HD-MB03	cell growth	168 h, single agent	–	IC50	5.23 nM
C=Cc1c2[n-]c(c1C)/C=c1\[n-]/c(c(C)c1C=C)=C\c1[n-]c(c(CCC(=O)O)c1C)/C=c1\[n-]c(c(C)c1CCC(=O)O)=C2.[Sn+4]	SH-SY5Y	RNA-seq, item: FLNC mRNA	5 µM, 5 h	relative to: untreated cells	fold change	1.82
CSc1cc(Oc2ccnc3[nH]c(=O)cnc23)ccc1NC(=O)Nc1cc(C(C)(C)C)nn1-c1ccccc1	patient-derived cell lines, mean of three	RPPA	1 µM, 4 h	relative to: DMSO	phospho-Src family Tyr416/total ratio	0.24
O=C1[C@H](Cc2ccc(O)cc2)N2C(=O)CCN(C(=O)NCc3ccccc3)[C@H]2CN1Cc1cccc2ccccc12	HD-MB03	cell growth	DMSO	–	IC50	524 nM
NC(=O)C1CCN(C(=O)Cc2ccc(N(CCCO)Cc3cnc4nc(N)nc(N)c4n3)cc2)CC1	786-O	high-content imaging, item: MitoTracker Red uptake	10 µM	–	mitochondrial toxicity	-2.18 ± 13.9%
Nc1ncnc2c1ncn2[C@@H]1O[C@H](CO)[C@@H](O)[C@H]1O	activated human T cells	item: hypoxanthine	50 µM	relative to: DMSO	log2 fold change	2.1 and 2.4 and 2.9
CC1(C)CCC(CN2CCN(c3ccc(C(=O)NS(=O)(=O)c4ccc(NCC5CCOCC5)c([N+](=O)[O-])c4)c(Oc4cnc5[nH]ccc5c4)c3)CC2)=C(c2ccc(Cl)cc2)C1	HD-MB03	–	168 h	–	IC50	inactive
Cc1cc(Nc2ncc(Cl)c(Nc3ccccc3S(=O)(=O)C(C)C)n2)c(OC(C)C)cc1C1CCNCC1	CLB-GE	phosphoproteomics LC-MS/MS, item: KIF26B phosphorylation	200 nM, 60 min	relative to: untreated	log2 fold change	-2.21
CC[C@]1(O)C[C@@H]2CN(CCc3c([nH]c4ccccc34)[C@@](C(=O)OC)(c3cc4c(cc3OC)N(C)[C@H]3[C@@](O)(C(=O)OC)[C@H](OC(C)=O)[C@]5(CC)C=CCN6CC[C@]43[C@@H]65)C2)C1	HD-MB03	cell growth	168 h, single agent	–	IC50	25.1 nM

Compound	cell line	test	conditions	scale	quantity	result
Clc1nc(NCc2ccco2)c2[nH]cnc2n1	iPSC-derived cardiomyocytes	RNA-seq, item: ADGRD1 chr12 exon ending 130991078	unit not given	relative to: DMSO minus compound	ΔPSI	-0.289
Cn1cc(Nc2nccc(-c3ccc4c(c3)CN(C3COC3)CC[C@H]4NC(=O)c3cn(C(C)(C)C)nn3)n2)cn1	mouse splenic B cells	item: Macropinocytosis signalling	30 mg/kg, IgD-activated in vivo	relative to: vehicle, direction not given	pathway activation z-score	2.33
O=C(Nc1nnc2n3c(nc(-c4ccc(Cl)cc4)c1-2)SCC3=O)c1ccccc1	SN12C	SRB	10 µM, NCI60 single-dose screen	relative to: untreated	cell growth	96.6%
Cc1nc(NC(=O)N2CCC[C@H]2C(N)=O)sc1-c1ccnc(C(C)(C)C(F)(F)F)c1	HGC-27	growth rate inhibition, CellTiter-Glo	120 h	–	IC50	4440 nM
Cc1cccc(-c2[nH]c(CNc3ccccc3F)nc2-c2ccc3ncnn3c2)n1	patient CD138+ cells	flow cytometry, item: annexin V and PI	2 µM, autologous CD8+ T-cell co-culture	–	apoptotic cells	6.6% and 5.53% and 13.9% and 10.9%
O=C(c1ccc2[nH]ccc2c1)N1CCN(S(=O)(=O)c2ccc3[nH]c(=O)oc3c2)CC1	HL-60	NUDT15 inhibitor, mass spectrometry	10 µM, 16 h, together with: 6-thioguanine 0 µM	higher = more incorporation	6-thio-dGTP in DNA	7.43 a.u.
Cc1cnc(NC2CCOCC2)nc1-n1cnc(C(=O)NC(CN)c2cc(F)cc(Cl)c2)c1 (stereo not drawn)	A-375	flow cytometry	1 µM, 48 h	–	G1 phase cells	96.3%
COc1ccc(CNC(=O)c2ccc(CNCc3cnc4nc(N)nc(N)c4n3)cc2)cc1OC	786-O	high-content imaging, item: MitoTracker Red uptake	10 µM	–	mitochondrial toxicity	-1.65 ± 32.6%
Cn1cc(-c2ccc(-c3cncc(Cl)c3N3CCC4(CCNC4=O)CC3)cc2)cn1	COLO 205	gene expression, microarray, item: ITPR1 mRNA	concentration not given, 2 h	relative to: untreated cells	log2 fold change	2.43
CC/C(=N\NC(=O)NCc1cccc(O)c1)c1ccc(O)c(C)c1O	SK-OV-3	gene expression, microarray, item: ADRB2	10 µM, 24 h	relative to: DMSO	log ratio	3.22
COc1ccc(NC(=S)N/N=C/c2cccc3cc4ccccc4nc23)cc1	HeLa	crystal violet staining	48 h	–	concentration causing significant viability reduction	≥ 10 µM
COc1ccc(OC)c(-c2nc3ccc(-c4nc5ccc(N6CCN(C)CC6)cc5[nH]4)cc3[nH]2)c1	SN12C	SRB	10 µM, 48 h	–	growth percent	106%
CC(=O)Nc1cccc(-n2c(=O)n(C3CC3)c(=O)c3c(Nc4ccc(I)cc4F)n(C)c(=O)c(C)c32)c1	HD-MB03	cell growth	168 h, single agent	–	IC50	21.2 nM
CC(C)NCC(O)c1ccc(O)c(O)c1 (stereo not drawn)	mouse ventricular cardiomyocytes	–	dose not given, 0.347 s	–	sarcomere length	1.8 µm
CN(C)C/C=C/C(=O)Nc1ccc(C(=O)Nc2cccc(Nc3ncc(Cl)c(-c4c[nH]c5ccccc45)n3)c2)cc1	HD-MB03	cell growth	DMSO	–	IC50	14.9 nM
Cc1ccc2oc(=O)cc(NCCO)c2c1	COS-7, untransfected	–	500 µM, relative to vehicle, unit not given	relative to: 3 µM ionomycin response	Ca2+ mobilisation	3.15 ± 1.93
O=C(C[C@@H](C(F)F)n1ccc(F)n1)N1CCC(O)(Cn2cnc3c(cnn3-c3ccc(F)cc3)c2=O)CC1	CHP-212 resistant	PI flow cytometry	0.1 µM, 24 h	–	G1 phase cells	72.7%
CCc1oc2ccccc2c1C(=O)c1cc(Br)c(O)c(Br)c1	primary rat hippocampal/cortical neuron-glia cultures	–	1 µM, together with: 1 µM α-synuclein oligomers	–	reversal of trafficking deficit	24.4%
NC(=NCCC[C@@H](C(=O)NCc1ccccc1)n1cc(-c2ccc(-c3ccccc3)cc2)nn1)c1ccc([N+](=O)[O-])o1	mouse iBMDM	STING signalling, qPCR	concentration not given, 2 h, together with: diABZI 500 nM	–	IL6 mRNA level	inhibited
CCn1cc(-c2cc(Cn3ccnc3)cc3c2CCN([C@H](c2cc(OC)ccn2)C2CC2)C3=O)c(C(F)(F)F)n1	NCI-H2030	cell growth, inhibitor	120 h	–	EC50	16900 nM
Nc1ccn([C@@H]2O[C@H](CO)[C@@H](O)C2(F)F)c(=O)n1	BXPC-3	cell proliferation, CCK-8	4 d	relative to: untreated	ED50	18.4 ± 1.3 nM
CCCCc1nc(Cl)c(CO)n1Cc1ccc(-c2ccccc2-c2nn[nH]n2)cc1	human PBMC	RNA-seq, item: GPR82 mRNA	10 µg/mL, 24 h	relative to: untreated control	log2 fold change	-2.45

Some of these lines once more:
Compound	cell line	test	conditions	scale	quantity	result
CC(C)NCC(O)c1ccc(O)c(O)c1 (stereo not drawn)	mouse ventricular cardiomyocytes	–	dose not given, 0.347 s	–	sarcomere length	1.8 µm
CN(C)C/C=C/C(=O)Nc1ccc(C(=O)Nc2cccc(Nc3ncc(Cl)c(-c4c[nH]c5ccccc45)n3)c2)cc1	HD-MB03	cell growth	DMSO	–	IC50	14.9 nM
Cc1ccc2oc(=O)cc(NCCO)c2c1	COS-7, untransfected	–	500 µM, relative to vehicle, unit not given	relative to: 3 µM ionomycin response	Ca2+ mobilisation	3.15 ± 1.93
O=C(C[C@@H](C(F)F)n1ccc(F)n1)N1CCC(O)(Cn2cnc3c(cnn3-c3ccc(F)cc3)c2=O)CC1	CHP-212 resistant	PI flow cytometry	0.1 µM, 24 h	–	G1 phase cells	72.7%
CCc1oc2ccccc2c1C(=O)c1cc(Br)c(O)c(Br)c1	primary rat hippocampal/cortical neuron-glia cultures	–	1 µM, together with: 1 µM α-synuclein oligomers	–	reversal of trafficking deficit	24.4%
